# Measured values gathered from unrelated publications.
# Numbered parts are unrelated; each lists some results of a single study. Substitutions count along the parent as printed.

# Set 1
# Target: Ras GTPase-activating protein-binding protein 1, full length (G3BP1, Homo sapiens, UniProt Q13283)
# UniProt Q13283, sequence (whole entry, looked up): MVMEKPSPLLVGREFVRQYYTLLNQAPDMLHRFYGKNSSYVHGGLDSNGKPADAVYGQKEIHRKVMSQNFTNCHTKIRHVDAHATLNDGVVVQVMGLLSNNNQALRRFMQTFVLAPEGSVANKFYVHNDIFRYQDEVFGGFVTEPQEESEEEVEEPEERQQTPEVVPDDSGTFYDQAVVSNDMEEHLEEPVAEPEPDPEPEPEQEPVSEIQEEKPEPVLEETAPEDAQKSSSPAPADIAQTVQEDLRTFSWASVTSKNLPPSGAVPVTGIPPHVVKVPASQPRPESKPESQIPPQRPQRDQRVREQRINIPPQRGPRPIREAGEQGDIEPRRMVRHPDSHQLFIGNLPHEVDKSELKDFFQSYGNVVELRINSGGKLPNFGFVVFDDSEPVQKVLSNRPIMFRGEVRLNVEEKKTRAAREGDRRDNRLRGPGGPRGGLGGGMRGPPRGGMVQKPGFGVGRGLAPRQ
# Technique: RNA Bind-n-Seq
# Molecule type: RNA
# Medium: in vitro
# Tested at: 200 nM
# Notes: whole 134-nt RNA, ends assumed
# Together with: 150 mM KCl
# Reference: input library
# Reading: higher = stronger binding
# Constant ends, left off below: GGGAGUUCUACAGUCCGACGAUC … UGGAAUUCUCGGGUGUCAAGG
Strand,log2 enrichment
UCAAGUCCUGUGCUACACAUCGUAUGUACCGAAUCGGGCCCGGCCCGGGGCCCGGAAAGUAUUAUGUUACGCCGUUCGGAUCUGCACUUC,-0.873
GGCCCGACCUGAUCGACUUUGAUAAGCUGAAGGACUCCAAUGCCCGGCACAACCUGGAGCACGCAUUCAAUGUGGCUGAGCGCCAGCUGG,-0.071
CCUGUGCUACACAUCGUAUGUACCGAAUCGGGGUUUUUUUGGGGUUUGGGGAAAAAGGGGAAAGUAUUAUGUUACGCCGUUCGGAUCUGC,0.0822
CCUGUGCUACACAUCGUAUGUACCGAAUCGGUUUUUUUGGGUUUUUUUGGGUUUUUUUGGGAAAGUAUUAUGUUACGCCGUUCGGAUCUG,-1.04
GUCCUGUGCUACACAUCGUAUGUACCGAAUCGGGGCCCCCCGGCCCCCCGGCCCCCCGGAAAGUAUUAUGUUACGCCGUUCGGAUCUGCA,-0.115
AGUCCUGUGCUACACAUCGUAUGUACCGAAUCGGGAAAAAGGAAAAAGGAAAAAGGGAAAGUAUUAUGUUACGCCGUUCGGAUCUGCACU,-0.857
GUCCUGUGCUACACAUCGUAUGUACCGAAUCGGGAAAAAGGAAAAAGGGAAAAAGGGGAAAGUAUUAUGUUACGCCGUUCGGAUCUGCAC,-0.533
CUCAAGUCCUGUGCUACACAUCGUAUGUACCGAAUCGGGAGGGGAGGGAGGGGAAAGUAUUAUGUUACGCCGUUCGGAUCUGCACUUCCA,1.53
CACAGACAACACGCACCCACACAGACACAGAGGGAAGGGGUUGGGAUGGGGGCAGGGUGCACAGCAGGGCGGGGUAGGACCCCAGCCCCU,1.75
UAACUUUAGAGGAGGAUCUGAUGGAUAAGGCAGUGGACGUGGAUUUGGGGAUGGCUAUAAUGGGUAUGGAGGAGGACCUGGAGGUGGCAA,0.182
AAGUCCUGUGCUACACAUCGUAUGUACCGAAUCGGGCCCCGGCCCCGGGCCCCGGGGAAAGUAUUAUGUUACGCCGUUCGGAUCUGCACU,-1.12
UGUAUCCCUGUUUCUUUUCUCCCUACAGAAACAUAUGAGGAUUUUGAUACCAGGAUACUUGAGGUAGGCAUGCAGAAUUAAAUACCUGGU,0.213

# Set 2
# Target: RNA binding protein fox-1 homolog 2, RRM domain, GST-SBP tag (RBFOX2, Homo sapiens, UniProt O43251-10, residues 100-194)
# Technique: RNA Bind-n-Seq
# Molecule type: RNA
# Medium: in vitro
# Tested at: 365 nM
# Notes: natural RNA segment, single round, ends assumed
# Reference: no-protein control
# Reading: higher = stronger binding
# Constant ends, left off below: GGGAGUUCUACAGUCCGACGAUC … UGGAAUUCUCGGGUGCCAA
# Residues (chain): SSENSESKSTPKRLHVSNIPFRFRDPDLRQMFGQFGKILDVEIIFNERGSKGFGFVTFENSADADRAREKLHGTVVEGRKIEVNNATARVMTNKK
Strand,RBNS enrichment (R)
CUUUGCCGUGCACGACUGUUCCUGCAAUUGAUAUUGUGUGAAACCUGGGAGGGUGGUCUUUGGGUGUUCUCAGGGGCCAAUGGUAAUUUUUGGUUGGGGAGCCAGCUUGG,1.78
GCAGGUGUGAUUGCUUUUUGCUCGUAGAUAUUAUCCUAAGUUGAAAUCCCCUAAAUCUCCCUUAGUAGCCUUUAAGUUCCCCCUUCCCUUUUUGGUAGCUGUUUUCUCUA,1.09
AUGUGUAGGUCUACAACUGCUAGUCUAAAAACUGUUUGCACCGAGCCCUCUGAUCAGAGUGGAUGAGACCCUACAGAGGGCUGGCAGGAUUUACUAAUCUAGUGGAAUAU,0.655
UCUUCCUUGGAGGGGGGAGCCAUAUUUUAUUCUUUUAUUGUCAGUAUCUGUAUCUCUCUCUCUUUUUGGAGGUGCUUAAGCAGAAGCAUUAACUUCUCUGGAAAGGGGGG,0.413
AGGGCCUAAGGUCCACUGGACAGUUGGGAAAACACCUGACCACCAUUUAAGGACUCUAAGCCAGAAUGGAAAAUUCACCAGGACUCCAUUCUUAAGCCUAUGCGAGUCCC,0.258
GAGGGUUGUGCUACAGAUGAUAGAGGAUUUUAUACCCCAAUAAUCAACUCGUUUUUAUAUUAAUGUACUUGUUUCUCUGUUGUAAGAAUAGGCAUUAACACAAAGGAGGC,1
UAACCCAUGAACUAGCUGUAACAUAGUUUGUGGAUCCAUGCACUGAUGCUGUGAAGCCUGCCCCUGUGUGUAUCUGUUCUCUCACCUCCCUAGCACUGUAAGCAGCGGUG,0.844
UAUCUUCAGAAGGAAAUGGCAACUAGUAGAUCAGUAAAAUUACGAAAACGAUGCCUGCAAAAUUUGAAGGAAUGCAAUUCUGAUUUGCCAUUUAUCAGGGAAAACUGAAA,0.739
CAAGGGCGCAAGAGUAGCGGUCCAAGCCUGCAACUCAUCUUUCAUUAAAGGCUUCUCUCUCACCAGCCAUCCGAUGUCUGUCUCCUCUGGGAUCUGGAAGUGGGUGGAGA,0.382
CUCCUCUCUUCCCCCAUGGUAGGAACAUAGCGUGUUUAUAUUUUAUGGCCAAACUAUUUUGAAUUUUGUUGUCUGGCCCUCAGUGCCCUGCCCUCUCCCUUUGCAGGACC,1.66
UGCCAGGAAGCCCUUCUUGCUUUUGAGAGAGGCUGUGACCACCCCCCAUCCUUCUCCCUACACUCCCAGCCAACCUAGUGCCCAAGCAGCUAAACUUGGCUUCCUUCUAA,0.688

# Set 3
# Target: CCND3, cyclin fold, Cln2 fusion (human)
# Technique: yeast growth competition, sequencing
# Medium: yeast
# Notes: weak parent motif
# Reference: not given
# Reading: higher = stronger binding
# Starting sequence: WEE1 docking peptide (human); HKTFRKLRLFDTP
Change,normalised enrichment score
HKTFRKLRLFDVP [T12V],0.176
HKKFRKLRLFDTP [T3K],0.0558
HKLFRKLRLFDTP [T3L],0.0101
HKCFRKLRLFDTP [T3C],0.0502
HKTFRKLRLFDLP [T12L],0.11
HKTFRKLREFDTP [L9E],0.233
HKGFRKLRLFDTP [T3G],0.169

# Further values, each from its own experiment
Substance,target,test,test system,setting,scale,quantity,value
"PhoQ, residues 284 288 289 292 302 303 SSTMSV","PhoP, residues 12 14 15 18 19 SGWQI (Escherichia coli, UniProt P23836)","Sort-seq, item: YFP reporter",E. coli,"PhoQ-PhoP variant library, together with: 10 µM Mg2+","reference: high Mg2+ state, higher = stronger signaling",fold induction,1.66

# A few entries again (set 1):
Strand,log2 enrichment
CCUGUGCUACACAUCGUAUGUACCGAAUCGGUUUUUUUGGGUUUUUUUGGGUUUUUUUGGGAAAGUAUUAUGUUACGCCGUUCGGAUCUG,-1.04
AGUCCUGUGCUACACAUCGUAUGUACCGAAUCGGGAAAAAGGAAAAAGGAAAAAGGGAAAGUAUUAUGUUACGCCGUUCGGAUCUGCACU,-0.857
